Experimental data pooled from the literature.
Every numbered part comes from another study and shows a few of its results, in no order.
Chain of UniProt P42336 (whole entry, unmodified, looked up): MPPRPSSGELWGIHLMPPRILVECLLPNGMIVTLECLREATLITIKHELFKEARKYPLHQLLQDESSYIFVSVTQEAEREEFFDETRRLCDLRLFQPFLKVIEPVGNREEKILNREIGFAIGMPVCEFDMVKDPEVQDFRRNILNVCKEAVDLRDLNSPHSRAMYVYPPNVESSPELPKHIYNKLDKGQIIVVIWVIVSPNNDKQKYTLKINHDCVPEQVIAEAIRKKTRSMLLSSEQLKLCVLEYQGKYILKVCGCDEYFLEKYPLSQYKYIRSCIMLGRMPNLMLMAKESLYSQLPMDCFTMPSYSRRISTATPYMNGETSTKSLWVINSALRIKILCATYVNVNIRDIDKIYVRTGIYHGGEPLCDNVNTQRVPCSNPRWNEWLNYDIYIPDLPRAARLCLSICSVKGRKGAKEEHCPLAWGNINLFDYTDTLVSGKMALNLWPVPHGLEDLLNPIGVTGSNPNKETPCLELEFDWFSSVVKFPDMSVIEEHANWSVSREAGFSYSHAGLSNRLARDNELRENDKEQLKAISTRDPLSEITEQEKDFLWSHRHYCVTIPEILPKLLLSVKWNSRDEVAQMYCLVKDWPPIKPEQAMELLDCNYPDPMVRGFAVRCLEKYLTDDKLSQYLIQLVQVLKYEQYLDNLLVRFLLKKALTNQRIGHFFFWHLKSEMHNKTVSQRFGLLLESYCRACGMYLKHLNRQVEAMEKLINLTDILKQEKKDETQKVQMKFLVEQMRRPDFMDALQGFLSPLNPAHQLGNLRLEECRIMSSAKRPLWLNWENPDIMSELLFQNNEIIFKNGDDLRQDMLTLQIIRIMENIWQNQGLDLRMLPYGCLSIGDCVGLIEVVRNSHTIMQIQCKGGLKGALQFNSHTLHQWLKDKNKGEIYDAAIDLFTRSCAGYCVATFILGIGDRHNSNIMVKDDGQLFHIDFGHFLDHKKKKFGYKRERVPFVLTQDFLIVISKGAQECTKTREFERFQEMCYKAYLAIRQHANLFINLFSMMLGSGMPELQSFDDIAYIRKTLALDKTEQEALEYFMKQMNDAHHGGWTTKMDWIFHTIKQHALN
Chain of UniProt Q15418 (whole entry, looked up): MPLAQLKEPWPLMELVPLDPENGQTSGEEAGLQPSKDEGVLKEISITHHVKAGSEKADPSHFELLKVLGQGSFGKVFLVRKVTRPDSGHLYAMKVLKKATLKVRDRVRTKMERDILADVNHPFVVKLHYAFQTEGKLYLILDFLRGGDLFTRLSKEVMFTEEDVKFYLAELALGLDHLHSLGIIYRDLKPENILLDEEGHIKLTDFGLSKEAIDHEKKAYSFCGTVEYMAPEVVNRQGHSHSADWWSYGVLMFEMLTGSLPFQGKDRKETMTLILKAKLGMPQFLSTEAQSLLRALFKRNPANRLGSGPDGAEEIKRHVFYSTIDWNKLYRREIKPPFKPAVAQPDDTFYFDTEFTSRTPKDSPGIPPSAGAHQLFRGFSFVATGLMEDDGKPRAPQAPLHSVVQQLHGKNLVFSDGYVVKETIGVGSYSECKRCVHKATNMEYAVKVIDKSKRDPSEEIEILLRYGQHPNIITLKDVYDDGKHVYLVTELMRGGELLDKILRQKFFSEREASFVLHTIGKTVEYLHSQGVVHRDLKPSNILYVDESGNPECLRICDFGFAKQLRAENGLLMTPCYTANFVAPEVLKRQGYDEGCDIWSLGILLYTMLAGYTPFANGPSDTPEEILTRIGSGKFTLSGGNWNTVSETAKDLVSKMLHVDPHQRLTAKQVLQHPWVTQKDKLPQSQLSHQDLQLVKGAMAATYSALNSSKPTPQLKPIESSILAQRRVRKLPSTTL
Chain of UniProt P07949 (whole entry, unmodified, looked up): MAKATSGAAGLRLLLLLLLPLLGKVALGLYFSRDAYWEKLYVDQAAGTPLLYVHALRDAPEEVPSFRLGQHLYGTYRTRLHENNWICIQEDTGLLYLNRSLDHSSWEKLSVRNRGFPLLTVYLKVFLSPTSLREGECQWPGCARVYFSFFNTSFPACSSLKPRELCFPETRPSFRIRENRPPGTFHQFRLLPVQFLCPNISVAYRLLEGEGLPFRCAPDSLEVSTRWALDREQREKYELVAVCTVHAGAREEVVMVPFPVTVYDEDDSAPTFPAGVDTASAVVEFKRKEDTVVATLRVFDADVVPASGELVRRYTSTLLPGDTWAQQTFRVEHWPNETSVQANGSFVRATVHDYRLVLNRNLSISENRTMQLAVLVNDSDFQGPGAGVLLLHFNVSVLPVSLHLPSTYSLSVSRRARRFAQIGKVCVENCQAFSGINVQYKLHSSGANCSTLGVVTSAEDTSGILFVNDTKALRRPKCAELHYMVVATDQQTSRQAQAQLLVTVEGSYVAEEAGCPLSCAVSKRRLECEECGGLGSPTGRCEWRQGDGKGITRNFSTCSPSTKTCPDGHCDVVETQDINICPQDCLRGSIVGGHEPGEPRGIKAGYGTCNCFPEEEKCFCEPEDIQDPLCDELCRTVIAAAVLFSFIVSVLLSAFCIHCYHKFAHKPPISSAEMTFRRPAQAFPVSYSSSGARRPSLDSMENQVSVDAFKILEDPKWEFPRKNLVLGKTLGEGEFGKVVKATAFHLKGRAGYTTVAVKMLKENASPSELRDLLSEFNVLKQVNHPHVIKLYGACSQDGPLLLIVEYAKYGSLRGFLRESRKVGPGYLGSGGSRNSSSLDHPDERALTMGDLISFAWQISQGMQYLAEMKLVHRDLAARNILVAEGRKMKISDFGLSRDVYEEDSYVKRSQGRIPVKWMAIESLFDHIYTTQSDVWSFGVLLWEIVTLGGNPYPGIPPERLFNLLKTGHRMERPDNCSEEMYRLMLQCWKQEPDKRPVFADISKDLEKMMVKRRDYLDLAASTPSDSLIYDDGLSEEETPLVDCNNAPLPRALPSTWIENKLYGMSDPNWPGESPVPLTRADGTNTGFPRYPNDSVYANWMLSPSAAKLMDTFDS
Chain of UniProt Q8IYT8 (whole entry, looked up): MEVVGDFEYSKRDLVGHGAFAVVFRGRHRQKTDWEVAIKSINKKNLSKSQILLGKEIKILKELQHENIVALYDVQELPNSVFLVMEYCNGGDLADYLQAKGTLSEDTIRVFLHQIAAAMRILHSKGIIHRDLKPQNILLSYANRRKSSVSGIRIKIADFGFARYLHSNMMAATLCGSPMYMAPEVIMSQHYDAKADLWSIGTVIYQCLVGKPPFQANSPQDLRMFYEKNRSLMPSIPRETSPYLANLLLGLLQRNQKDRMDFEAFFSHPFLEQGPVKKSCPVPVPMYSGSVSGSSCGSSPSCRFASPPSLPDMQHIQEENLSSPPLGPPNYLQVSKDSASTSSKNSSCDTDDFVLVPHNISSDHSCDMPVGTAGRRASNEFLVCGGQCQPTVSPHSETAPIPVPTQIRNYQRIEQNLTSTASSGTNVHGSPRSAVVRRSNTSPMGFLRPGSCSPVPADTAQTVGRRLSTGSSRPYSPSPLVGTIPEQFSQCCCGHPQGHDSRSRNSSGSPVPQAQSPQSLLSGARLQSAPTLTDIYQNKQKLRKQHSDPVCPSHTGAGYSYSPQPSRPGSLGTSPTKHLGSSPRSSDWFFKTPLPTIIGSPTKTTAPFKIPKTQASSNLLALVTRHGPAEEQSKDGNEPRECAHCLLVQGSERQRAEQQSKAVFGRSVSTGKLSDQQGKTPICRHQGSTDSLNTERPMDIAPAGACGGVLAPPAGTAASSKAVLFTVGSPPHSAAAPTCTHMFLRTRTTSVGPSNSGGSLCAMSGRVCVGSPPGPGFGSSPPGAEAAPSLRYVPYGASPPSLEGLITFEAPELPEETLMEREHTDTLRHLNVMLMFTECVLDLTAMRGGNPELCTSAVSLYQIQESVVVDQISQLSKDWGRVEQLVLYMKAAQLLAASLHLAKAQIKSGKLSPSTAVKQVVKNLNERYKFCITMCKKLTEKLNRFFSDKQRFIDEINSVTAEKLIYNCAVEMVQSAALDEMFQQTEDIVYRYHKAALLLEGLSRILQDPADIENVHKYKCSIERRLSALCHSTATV
Chain of UniProt Q9H1R3 (whole entry, looked up): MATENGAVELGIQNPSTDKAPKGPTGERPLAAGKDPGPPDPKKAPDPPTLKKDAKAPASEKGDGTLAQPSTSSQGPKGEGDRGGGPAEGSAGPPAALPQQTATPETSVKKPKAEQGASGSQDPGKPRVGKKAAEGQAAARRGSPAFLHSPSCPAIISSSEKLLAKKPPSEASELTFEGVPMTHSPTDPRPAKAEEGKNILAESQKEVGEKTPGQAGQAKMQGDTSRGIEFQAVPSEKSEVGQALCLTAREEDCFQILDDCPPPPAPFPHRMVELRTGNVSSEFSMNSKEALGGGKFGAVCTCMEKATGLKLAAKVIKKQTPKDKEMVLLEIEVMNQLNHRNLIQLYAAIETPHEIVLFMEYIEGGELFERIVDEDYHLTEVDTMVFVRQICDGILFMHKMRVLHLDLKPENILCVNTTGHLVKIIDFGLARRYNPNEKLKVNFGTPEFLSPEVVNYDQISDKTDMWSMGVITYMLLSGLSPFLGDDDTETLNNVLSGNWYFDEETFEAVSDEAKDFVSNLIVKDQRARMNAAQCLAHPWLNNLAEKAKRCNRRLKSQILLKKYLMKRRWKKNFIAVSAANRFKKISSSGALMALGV

Sample 1
Target: Beta-1 adrenergic receptor (ADRB1, Homo sapiens, UniProt P08588)
Chain of UniProt P08588 (whole entry, looked up): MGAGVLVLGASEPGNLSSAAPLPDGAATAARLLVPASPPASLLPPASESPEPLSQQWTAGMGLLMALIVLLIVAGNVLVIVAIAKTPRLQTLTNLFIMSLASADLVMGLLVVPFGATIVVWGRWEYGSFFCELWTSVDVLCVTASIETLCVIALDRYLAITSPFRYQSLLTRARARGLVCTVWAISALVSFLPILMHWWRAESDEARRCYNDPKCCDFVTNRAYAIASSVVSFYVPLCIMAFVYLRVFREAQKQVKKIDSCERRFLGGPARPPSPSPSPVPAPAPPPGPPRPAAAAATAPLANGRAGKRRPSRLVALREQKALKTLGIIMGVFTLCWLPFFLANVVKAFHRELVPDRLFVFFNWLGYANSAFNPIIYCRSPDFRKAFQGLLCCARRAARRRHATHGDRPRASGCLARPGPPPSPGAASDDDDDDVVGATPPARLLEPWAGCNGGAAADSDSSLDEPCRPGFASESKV
Action: agonist
SMILES | EC50 [µM]
N#Cc1cc2cc(CN3CCC(Nc4ncnc5sc(CC(F)(F)F)cc45)CC3)c(O)cc2n1Cc1cn[nH]c1 | ≥ 100
Cc1cc(=O)oc2cc(NC(=O)CCCCCCC(=O)NO)ccc12 | ≥ 100
Cc1ccc2c(CSc3nnnn3-c3ccc(Cl)cc3)cc(=O)oc2c1 | ≥ 100
COc1ccccc1N1CCN(C(=O)c2cc(Br)c[nH]2)CC1 | ≥ 100
O=C(CSc1nc2ccccc2n1CCc1ccccc1)c1ccc(O)c(O)c1 | ≥ 100
COc1cc(CN2CC=C(C)CC2)ccc1OCC(O)CN1CCSCC1 (centres unmarked) | ≥ 100
Cc1ccc(-c2cc(C(=O)Nc3ccc([S+](=O)([O-])NCc4nccs4)cc3)c3ccccc3n2)cc1C | ≥ 100

Sample 2
Structure (SMILES): CC(C)n1cnc(-c2ccc(F)cc2)c1-c1ncc(C(=O)Nc2ccc(N3CCN(C)CC3)cc2)[nH]1
Technique: phase 2a trial
Host: idiopathic pulmonary fibrosis patients
dose | setting | patients with hypophosphataemia [%]
60 mg once daily | grade 2 emergent event | 0
all arms pooled | grade 2 emergent event | 0
all arms pooled | grade 3 emergent event | 0
60 mg once daily | grade 4 emergent event | 0
30 mg once daily | grade 3 emergent event | 0

Sample 3
Organism: Sarcocystis neurona
Read-out: parasite growth
Concentration: 10 µM
Time: 96 h
Setting: first screen
Reference: untreated
Compound | log2 fold change
CCN1CCC[C@H]1CNC(=O)c1cc(S(N)(=O)=O)ccc1OC | 0.22
CC(=O)S[C@@H]1CC2=CC(=O)CC[C@]2(C)[C@H]2CC[C@@]3(C)[C@@H](CC[C@@]34CCC(=O)O4)[C@H]12 | -0.09
CNNCc1ccc(C(=O)NC(C)C)cc1 | -0.00547
C[C@]12C[C@H](O)[C@H]3[C@@H](CCC4=CC(=O)CC[C@@]43C)[C@@H]1CC[C@@H]2C(=O)CO | 0.03
O=C(CCCN1CCC(O)(c2ccc(Cl)cc2)CC1)c1ccc(F)cc1 | 0.17
CC[C@H](C)C(=O)O[C@H]1CCC=C2C=C[C@H](C)[C@H](CC[C@@H]3C[C@@H](O)CC(=O)O3)[C@H]21 | -0.33

Sample 4
SMILES: C[C@H](c1cccc(C#N)c1)n1cc(Cl)cc(C(N)=O)c1=N
Read-out: cell-free assay
Technique: competition with immobilised ligand
Concentration: 1 µM
target | remaining binding [%]
Serine/threonine-protein kinase ULK2 (ULK2, Homo sapiens, UniProt Q8IYT8) | 71
Myosin light chain kinase 2, skeletal/cardiac muscle (MYLK2, Homo sapiens, UniProt Q9H1R3) | 100
Proto-oncogene tyrosine-protein kinase receptor Ret (RET, Homo sapiens, UniProt P07949, V804M) | 100
Serine/threonine-protein kinase NIM1 (NIM1K, Homo sapiens, UniProt Q8IY84) | 84
Ribosomal protein S6 kinase alpha-1, C-terminal kinase domain (RPS6KA1, Homo sapiens, UniProt Q15418) | 97
Serine/threonine-protein kinase D1 (PRKD1, Homo sapiens, UniProt Q15139) | 100
NUAK family SNF1-like kinase 1 (NUAK1, Homo sapiens, UniProt O60285) | 57
Phosphatidylinositol 4,5-bisphosphate 3-kinase catalytic subunit alpha isoform (PIK3CA, Homo sapiens, UniProt P42336, I800L) | 56
Phosphatidylinositol 3-kinase C2 domain-containing subunit gamma (PIK3C2G, Homo sapiens, UniProt O75747) | 88
Cyclin-dependent kinase 17 (CDK17, Homo sapiens, UniProt Q00537) | 91
Myosin-IIIa (MYO3A, Homo sapiens, UniProt Q8NEV4) | 100
NUAK family SNF1-like kinase 2 (NUAK2, Homo sapiens, UniProt Q9H093) | 91
Mitogen-activated protein kinase 11 (MAPK11, Homo sapiens, UniProt Q15759) | 100
1-phosphatidylinositol 3-phosphate 5-kinase (PIKFYVE, Homo sapiens, UniProt Q9Y2I7) | 91
Phosphatidylinositol 4,5-bisphosphate 3-kinase catalytic subunit alpha isoform (PIK3CA, Homo sapiens, UniProt P42336, M1043I) | 100
Serine/threonine-protein kinase Sgk2 (SGK2, Homo sapiens, UniProt Q9HBY8) | 100

Mixed results
Structure (SMILES) | target | read-out | technique | concentration | added | endpoint | value
COC(=O)CCCn1c(-c2ccccc2)nc2c(c1=O)[C@@H](c1ccccc1)[C@]1(c3ccc(OC)cc3)Oc3cc(OC)cc(OC)c3[C@]21O | Eukaryotic initiation factor 4A-III (Homo sapiens, UniProt P38919) | RNA clamping | fluorescence polarization | concentration not given | FAM-labelled poly r(AG)8 RNA | fluorescence polarization change | 11 mP
